Results from different studies.
Chymotrypsinogen A: Chymotrypsinogen A (Bos taurus, UniProt P00766)
GBA2: Beta-glucosidase (GBA2, Homo sapiens, UniProt Q9HCG7)
Chain of UniProt Q9HCG7 (whole entry, looked up): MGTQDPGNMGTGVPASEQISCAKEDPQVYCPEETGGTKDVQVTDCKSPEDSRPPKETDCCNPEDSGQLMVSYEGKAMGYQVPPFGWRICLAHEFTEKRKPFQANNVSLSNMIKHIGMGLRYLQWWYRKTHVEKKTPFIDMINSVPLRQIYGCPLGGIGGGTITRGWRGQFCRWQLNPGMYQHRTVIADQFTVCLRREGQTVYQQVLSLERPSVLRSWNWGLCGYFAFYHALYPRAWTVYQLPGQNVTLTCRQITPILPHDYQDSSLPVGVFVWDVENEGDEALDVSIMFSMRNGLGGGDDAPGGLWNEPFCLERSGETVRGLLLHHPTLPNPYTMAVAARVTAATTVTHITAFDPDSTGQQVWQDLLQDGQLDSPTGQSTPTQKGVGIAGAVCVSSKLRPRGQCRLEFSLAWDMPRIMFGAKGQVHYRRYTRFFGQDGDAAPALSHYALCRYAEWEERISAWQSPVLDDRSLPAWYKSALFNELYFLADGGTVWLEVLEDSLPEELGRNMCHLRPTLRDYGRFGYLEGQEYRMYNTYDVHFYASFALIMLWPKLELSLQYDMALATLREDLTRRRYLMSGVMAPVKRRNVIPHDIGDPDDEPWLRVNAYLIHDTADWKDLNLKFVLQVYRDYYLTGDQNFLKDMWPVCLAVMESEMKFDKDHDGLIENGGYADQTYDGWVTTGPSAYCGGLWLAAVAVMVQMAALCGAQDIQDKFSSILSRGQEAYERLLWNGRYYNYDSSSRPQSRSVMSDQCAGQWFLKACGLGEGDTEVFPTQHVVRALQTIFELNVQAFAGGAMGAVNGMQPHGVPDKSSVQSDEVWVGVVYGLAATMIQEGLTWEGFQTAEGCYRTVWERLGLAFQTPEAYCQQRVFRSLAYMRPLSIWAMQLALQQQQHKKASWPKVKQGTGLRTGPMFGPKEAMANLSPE
PPARA ligand-binding domain: Peroxisome proliferator-activated receptor alpha, ligand-binding domain (PPARA, Homo sapiens, UniProt Q07869)
Chain of UniProt Q07869 (whole entry, looked up): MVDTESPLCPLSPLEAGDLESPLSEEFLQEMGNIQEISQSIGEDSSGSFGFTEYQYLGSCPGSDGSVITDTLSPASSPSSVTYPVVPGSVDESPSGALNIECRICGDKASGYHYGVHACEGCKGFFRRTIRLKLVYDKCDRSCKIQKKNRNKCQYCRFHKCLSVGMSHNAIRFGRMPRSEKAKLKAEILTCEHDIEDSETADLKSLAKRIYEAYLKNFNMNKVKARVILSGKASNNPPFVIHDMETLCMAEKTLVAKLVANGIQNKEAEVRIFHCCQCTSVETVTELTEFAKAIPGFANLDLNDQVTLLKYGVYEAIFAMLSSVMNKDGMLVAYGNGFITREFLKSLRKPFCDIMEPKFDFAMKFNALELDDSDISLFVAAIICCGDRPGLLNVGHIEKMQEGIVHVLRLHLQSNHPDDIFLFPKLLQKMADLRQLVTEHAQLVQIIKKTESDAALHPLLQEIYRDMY
PIK3CG: Phosphatidylinositol 4,5-bisphosphate 3-kinase catalytic subunit gamma isoform (PIK3CG, Homo sapiens, UniProt P48736)
Chain of UniProt P48736 (whole entry, looked up): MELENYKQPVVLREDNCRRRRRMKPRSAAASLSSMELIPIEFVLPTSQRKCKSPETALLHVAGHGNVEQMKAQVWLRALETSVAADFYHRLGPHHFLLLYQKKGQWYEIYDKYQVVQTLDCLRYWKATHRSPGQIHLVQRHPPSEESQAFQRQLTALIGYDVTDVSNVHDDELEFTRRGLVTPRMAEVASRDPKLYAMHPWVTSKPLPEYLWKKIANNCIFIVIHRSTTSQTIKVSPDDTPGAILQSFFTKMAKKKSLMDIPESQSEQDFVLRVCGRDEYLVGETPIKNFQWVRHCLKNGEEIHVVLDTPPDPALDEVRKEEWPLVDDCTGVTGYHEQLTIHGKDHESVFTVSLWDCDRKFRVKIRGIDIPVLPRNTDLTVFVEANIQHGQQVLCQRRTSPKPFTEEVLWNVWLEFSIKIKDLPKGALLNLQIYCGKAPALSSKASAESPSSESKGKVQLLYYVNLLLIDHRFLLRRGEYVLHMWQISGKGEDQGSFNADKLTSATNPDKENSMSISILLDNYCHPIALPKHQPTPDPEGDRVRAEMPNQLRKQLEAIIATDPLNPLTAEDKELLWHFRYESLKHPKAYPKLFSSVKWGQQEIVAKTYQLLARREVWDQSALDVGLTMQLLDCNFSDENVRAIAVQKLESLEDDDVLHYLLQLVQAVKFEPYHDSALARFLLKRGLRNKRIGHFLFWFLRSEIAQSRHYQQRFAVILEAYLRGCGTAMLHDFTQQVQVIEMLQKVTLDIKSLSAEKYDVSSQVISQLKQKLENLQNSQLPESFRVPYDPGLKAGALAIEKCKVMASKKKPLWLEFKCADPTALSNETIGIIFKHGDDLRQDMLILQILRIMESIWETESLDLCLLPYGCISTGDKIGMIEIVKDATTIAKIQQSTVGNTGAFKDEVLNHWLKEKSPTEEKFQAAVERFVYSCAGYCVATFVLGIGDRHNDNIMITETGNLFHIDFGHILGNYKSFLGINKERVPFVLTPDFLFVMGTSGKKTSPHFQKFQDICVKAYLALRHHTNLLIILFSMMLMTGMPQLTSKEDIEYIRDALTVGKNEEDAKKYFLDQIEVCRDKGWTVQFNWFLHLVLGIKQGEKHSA
Chain of UniProt Q99436 (whole entry, looked up): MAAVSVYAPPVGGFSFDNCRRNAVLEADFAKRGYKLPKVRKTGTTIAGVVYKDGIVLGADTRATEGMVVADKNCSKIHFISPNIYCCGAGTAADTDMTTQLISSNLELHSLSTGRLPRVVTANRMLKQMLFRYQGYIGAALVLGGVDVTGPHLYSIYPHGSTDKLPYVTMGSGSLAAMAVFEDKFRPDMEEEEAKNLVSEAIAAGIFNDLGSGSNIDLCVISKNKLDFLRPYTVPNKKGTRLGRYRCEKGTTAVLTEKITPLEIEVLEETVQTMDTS
Chain of UniProt P08913 (whole entry, looked up): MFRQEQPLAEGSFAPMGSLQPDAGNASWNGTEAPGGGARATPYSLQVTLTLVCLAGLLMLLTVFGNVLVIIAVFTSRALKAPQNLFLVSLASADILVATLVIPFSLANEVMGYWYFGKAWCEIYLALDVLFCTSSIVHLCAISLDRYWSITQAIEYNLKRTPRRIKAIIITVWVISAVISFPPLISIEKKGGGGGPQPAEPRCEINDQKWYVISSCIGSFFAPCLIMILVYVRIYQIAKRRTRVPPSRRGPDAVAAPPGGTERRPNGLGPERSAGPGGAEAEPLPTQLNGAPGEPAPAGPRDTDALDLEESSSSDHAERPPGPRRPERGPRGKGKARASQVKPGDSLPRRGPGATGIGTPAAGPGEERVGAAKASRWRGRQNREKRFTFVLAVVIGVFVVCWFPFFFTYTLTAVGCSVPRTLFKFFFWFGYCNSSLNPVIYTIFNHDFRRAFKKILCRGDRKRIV
Chain of UniProt P49720 (whole entry, looked up): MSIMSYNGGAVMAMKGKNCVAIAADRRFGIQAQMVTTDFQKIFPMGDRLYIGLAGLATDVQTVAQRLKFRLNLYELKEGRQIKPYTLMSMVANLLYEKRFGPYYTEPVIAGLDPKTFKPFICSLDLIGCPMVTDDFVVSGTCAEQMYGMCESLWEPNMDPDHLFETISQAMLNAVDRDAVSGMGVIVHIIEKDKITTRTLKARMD
Chain of UniProt P41240 (whole entry, looked up): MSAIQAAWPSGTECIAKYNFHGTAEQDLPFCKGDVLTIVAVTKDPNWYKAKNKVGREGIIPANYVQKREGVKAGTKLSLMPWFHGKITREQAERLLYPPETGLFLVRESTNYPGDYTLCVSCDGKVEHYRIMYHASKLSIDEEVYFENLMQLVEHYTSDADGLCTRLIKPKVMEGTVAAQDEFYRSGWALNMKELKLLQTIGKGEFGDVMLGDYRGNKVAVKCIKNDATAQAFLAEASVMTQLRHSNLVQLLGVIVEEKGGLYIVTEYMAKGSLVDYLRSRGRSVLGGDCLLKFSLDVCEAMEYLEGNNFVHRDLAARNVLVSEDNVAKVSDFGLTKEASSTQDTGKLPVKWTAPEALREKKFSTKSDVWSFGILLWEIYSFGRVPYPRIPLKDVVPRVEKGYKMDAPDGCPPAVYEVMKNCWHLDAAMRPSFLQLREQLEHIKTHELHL
Chain of UniProt O14757 (whole entry, looked up): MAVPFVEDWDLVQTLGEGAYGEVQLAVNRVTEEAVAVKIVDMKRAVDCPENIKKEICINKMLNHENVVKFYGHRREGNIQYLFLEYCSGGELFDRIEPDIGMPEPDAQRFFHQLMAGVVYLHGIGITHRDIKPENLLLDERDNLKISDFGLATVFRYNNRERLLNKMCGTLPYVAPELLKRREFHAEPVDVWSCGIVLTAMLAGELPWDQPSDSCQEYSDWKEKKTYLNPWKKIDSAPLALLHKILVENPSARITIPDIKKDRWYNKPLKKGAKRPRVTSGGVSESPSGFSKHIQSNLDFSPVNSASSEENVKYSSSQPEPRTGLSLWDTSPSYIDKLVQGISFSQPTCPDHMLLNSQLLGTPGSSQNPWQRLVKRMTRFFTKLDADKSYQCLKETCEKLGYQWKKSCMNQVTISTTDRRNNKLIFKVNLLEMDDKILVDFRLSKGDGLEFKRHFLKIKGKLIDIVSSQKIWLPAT
Chain of UniProt Q8TBX8 (whole entry, looked up): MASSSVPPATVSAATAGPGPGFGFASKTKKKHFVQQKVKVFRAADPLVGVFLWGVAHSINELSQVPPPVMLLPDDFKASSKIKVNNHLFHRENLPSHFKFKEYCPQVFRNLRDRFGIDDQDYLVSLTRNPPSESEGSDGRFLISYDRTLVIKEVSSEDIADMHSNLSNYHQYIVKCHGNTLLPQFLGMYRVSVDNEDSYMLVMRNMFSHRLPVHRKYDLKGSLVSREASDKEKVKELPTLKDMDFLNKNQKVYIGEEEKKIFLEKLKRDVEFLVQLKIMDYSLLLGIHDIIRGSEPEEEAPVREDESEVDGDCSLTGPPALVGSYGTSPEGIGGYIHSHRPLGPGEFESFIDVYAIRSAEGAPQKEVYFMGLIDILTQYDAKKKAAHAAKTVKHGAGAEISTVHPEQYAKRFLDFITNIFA

Structure (SMILES) = O=C(Nc1ccc(F)cc1)Nc1ccc(C2=NNC(c3ccc(NC(=O)Nc4ccc(F)cc4)cc3)C2)cc1 (stereo not drawn); target = Advanced glycosylation end product-specific receptor (AGER, Homo sapiens, UniProt Q15109); IC50 = 33000 nM
Structure (SMILES) = O=C(NCc1ccccc1)c1ccccc1NC(=O)C(C(F)(F)F)C(F)(F)F; target = Chymotrypsinogen A; assay = enzyme activity, inhibitor, fluorescence; IC50 = 15000 nM
Structure (SMILES) = OC[C@H]1[C@@H](O)[C@H](O)[C@@H](O)CN1CCCCCOCC1CCCC1; target = GBA2; assay = inhibitor, 4MU-β-D-glucopyranoside; test system = HEK293T homogenates overexpressing GBA2; IC50 = 3 nM
Structure (SMILES) = COCCN(C)CC(=O)NC(Cc1ccc(-c2ccccc2)cc1)B(O)O (stereo not drawn); target = Proteasome subunit beta type-3/PSMB7 (Homo sapiens, UniProt P49720+Q99436); assay = β2c trypsin-like activity, inhibitor; conditions = constitutive proteasome, together with: Ac-KQL-AMC; IC50 = > 10000 nM
Structure (SMILES) = Cc1nn(-c2cccc(N)c2)c(=O)c2cnc(Nc3ccc(N4CCNCC4)cc3)nc12; target = Tyrosine-protein kinase JAK2, JH1 (JAK2, Homo sapiens, UniProt O60674, V617F); assay = enzyme activity, inhibitor; IC50 = > 10000 nM
Structure (SMILES) = Cc1c(Cc2ccc(OC(C)C(=O)O)cc2)c2ccc(C(=O)N[C@@H](C)c3cccc(C(C)C)c3)cc2n1C (stereo partly drawn); target = PPARA ligand-binding domain; assay = reporter gene, luciferase reporter; test system = HEK293T, Gal4-PPARα LBD; IC50 = 1930 nM
Structure (SMILES) = CCC(O)(C#Cc1ccc2[nH]c3c(c2c1)-c1nc(N)ncc1CCC3)CC; target = Phosphatidylinositol 5-phosphate 4-kinase type-2 gamma (PIP4K2C, Homo sapiens, UniProt Q8TBX8); assay = target engagement in cells, BRET; IC50 = 580 nM
Structure (SMILES) = CCCCCOCCCCCN1C[C@H](O)[C@@H](O)[C@H](O)[C@H]1CO; target = GBA2; assay = inhibitor, 4MU-β-D-glucopyranoside; test system = HEK293T homogenates overexpressing GBA2; IC50 = 40 nM
Structure (SMILES) = CCN(CC)CC(=O)Nc1cccc(-n2cc(-c3ccc4ccc(-c5cn(-c6cccc(NC(=O)CN(CC)CC)c6)nn5)cc4c3)nn2)c1; target = Tyrosine-protein kinase CSK (CSK, Homo sapiens, UniProt P41240); assay = enzyme activity, inhibitor; IC50 = > 10000 nM
Structure (SMILES) = Cc1c(Cc2cncc(O[C@H](C)C(=O)O)c2)c2ccc(C(=O)N[C@@H](C)c3ccc(C(C)(C)C)cc3)cc2n1CC1CCC1; target = PPARA ligand-binding domain; assay = reporter gene, luciferase reporter; test system = HEK293T, Gal4-PPARα LBD; IC50 = 110 nM
Structure (SMILES) = COc1cc(-c2ccc3c(c2)Nc2ccc(C(=O)NCCCN4CCOCC4)cc2NC3=O)ccc1O; target = Serine/threonine-protein kinase Chk1 (CHEK1, Homo sapiens, UniProt O14757); assay = enzyme activity, inhibitor; IC50 = 121 nM
Structure (SMILES) = O=C(CCc1ccccc1)N1C(=O)C2(NC(c3ccc(F)cc3)C3(C(=O)Nc4ccccc43)N2Cc2ccc(F)cc2)c2ccccc21 (stereo not drawn); target = PIK3CG; assay = enzyme activity, inhibitor, ADP detection; IC50 = 29.1 nM
Structure (SMILES) = Clc1ccc(NN=C(c2ccccc2)c2ccccn2)nc1; target = Lysine-specific demethylase 4B (KDM4B, Homo sapiens, UniProt O94953); assay = enzyme activity, inhibitor, ELISA; IC50 = 435 nM
Structure (SMILES) = CCN1/C(=C/C(C)=O)Sc2ccc(F)cc21; target = Alpha-2A adrenergic receptor (ADRA2A, Homo sapiens, UniProt P08913); assay = ligand displacement, radioligand; IC50 = 27000 nM
Structure (SMILES) = O=C(C(C(F)(F)F)C(F)(F)F)N1CCc2ccccc21; target = Chymotrypsinogen A; assay = enzyme activity, inhibitor, fluorescence; IC50 = 15000 nM
Structure (SMILES) = Cc1nc(N(C)c2ccc3c(c2)/C(=C/c2ccccc2)C(=O)N3C)c2ccccc2n1; target = PIK3CG; assay = enzyme activity, inhibitor, ADP detection; IC50 = 246 nM
Structure (SMILES) = CCCCCCN1C[C@H](O)[C@@H](O)[C@H](O)[C@@H]1CO; target = GBA2; assay = inhibitor, 4MU-β-D-glucopyranoside; test system = HEK293T homogenates overexpressing GBA2; IC50 = 140 nM
Structure (SMILES) = Cc1nn(-c2ccccc2)nc1CNC(=O)C(C(F)(F)F)C(F)(F)F; target = Chymotrypsinogen A; assay = enzyme activity, inhibitor, fluorescence; IC50 = > 100000 nM

A few entries again:
Structure (SMILES) = Clc1ccc(NN=C(c2ccccc2)c2ccccn2)nc1; target = Lysine-specific demethylase 4B (KDM4B, Homo sapiens, UniProt O94953); assay = enzyme activity, inhibitor, ELISA; IC50 = 435 nM
